# Experimental data gathered from unrelated publications.
# Lines come from different studies, so protocols differ.
SMILES,test,test system,conditions,quantity,result
Cn1nc(NS(C)(=O)=O)c2c(Cl)ccc(-n3c([C@H](Cc4cc(F)cc(F)c4)NC(=O)Cn4nc(C(F)F)c5c4C(F)(F)[C@@H]4C[C@H]54)nc4nc(OCCC(F)(F)F)ccc4c3=O)c21,measured: LDL cholesterol grade 1 increase,human,"200 mg once daily, powder in bottle",patients with laboratory abnormality,17%
Cc1cn([C@H]2O[C@@H](CO[P@@](=O)(N[C@@H](C)C(=O)OC(C)C)Oc3ccccc3)[C@H](O)[C@H]2F)c(=O)[nH]c1=O,,human,"oral, 50 mg once daily, 28 days",patients with any TEAE,67%
C=CC(=O)Nc1cc(Nc2nccc(Nc3cc(Cl)c(F)cc3C(C)(C)O)n2)c(OC)cc1N1CC[C@@H](N(C)C)C1,,human,"oral, dose not given, phase I clinical",patients with adverse event Anaemia,35.3%
N[C@@H]1c2ccccc2OC12CCN(c1cnc3c(N4CCCc5ncccc54)n[nH]c3n1)CC2,measured: Fatigue,human advanced or metastatic solid tumours,"oral, 60 mg once daily, phase Ia pooled cohort",patients with treatment-related adverse event,24%
C[C@@H]1OC(=O)NN=C1c1ccc(-c2ccc(F)cc2)c(C(F)(F)F)c1,"phase I trial, measured: Presyncope worst grade 2",human patients,"dose not given, all dose groups",patients with adverse event,20%
COc1ncnn2ccc(-c3cnc4nc(C)n(Cc5nnc([C@@H](C)F)o5)c4c3)c12,,human,"oral, dose not given, grade 2",patients with stomatitis,0%
C[C@]1(O)C[C@@](N)(c2ccc(-c3nc4n(c3-c3ccccc3)COc3ccncc3-4)cc2)C1,,"human, advanced or metastatic solid tumours","dose not given, intermittent dose escalation total",patients with serious adverse event,42.9%
O=C1Nc2cc3[nH]nc(-c4ccncc4)c3cc2CN1Cc1ccccc1,CTCAE v4.03,"human, relapsed or refractory advanced solid tumours","intravenous, 3.6 mg/kg",patients with QTc prolongation,0%
CN[C@@H](C)C(=O)N[C@H]1CN(S(=O)(=O)c2cccc(S(=O)(=O)N3CC[C@H]4CC[C@@H](C(=O)NC(c5ccccc5)c5ccccc5)N4C(=O)[C@@H](NC(=O)[C@H](C)NC)C3)c2)CC[C@H]2CC[C@@H](C(=O)NC(c3ccccc3)c3ccccc3)N2C1=O,,"human, advanced solid tumours","intravenous, 7 mg weekly, CTCAE version 4.0",patients with any TRAE,0%

# Repeated from above:
SMILES,test,test system,conditions,quantity,result
C=CC(=O)Nc1cc(Nc2nccc(Nc3cc(Cl)c(F)cc3C(C)(C)O)n2)c(OC)cc1N1CC[C@@H](N(C)C)C1,,human,"oral, dose not given, phase I clinical",patients with adverse event Anaemia,35.3%
